Measured values collected from several papers.
Each line is one published result; not all experiments were run side by side. ± marks the error that the study gave.
chemosensory protein 1: chemosensory protein 1 (Chilo suppressalis, UniProt V9PY22)
Protein farnesyltransferase: Protein farnesyltransferase (Homo sapiens, UniProt P49354+P49356)
CXCR4: C-X-C chemokine receptor type 4 (CXCR4, Homo sapiens, UniProt P61073)
SLC10A1: Hepatic sodium/bile acid cotransporter (SLC10A1, Homo sapiens, UniProt Q14973)
T1: RNA aptamer optimized Class I; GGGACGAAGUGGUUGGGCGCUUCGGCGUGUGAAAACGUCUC
T2: RNA aptamer del U24; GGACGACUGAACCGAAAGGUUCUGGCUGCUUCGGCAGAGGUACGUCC

| Molecule | target | assay | system | conditions | scale | quantity | value |
| --- | --- | --- | --- | --- | --- | --- | --- |
| O=S(=O)(O)C1CCNCC1 | GABA-A receptor; alpha-1/beta-2/gamma-2 (Homo sapiens, UniProt P14867+P18507+P47870) | ion current, positive allosteric modulator | Ltk | together with: zuranolone 200 nM | reference: maximal GABA current | Emax | 50.5% |
| CCCCCCCCCCCC=O | chemosensory protein 1 | binding, competitive ligand, fluorescence competitive binding |  | highest concentration tested, pH 7.4, protein 2 µM, together with: 1-NPN 2 µM | reference: no ligand | remaining 1-NPN fluorescence | 37.4 ± 2.76% |
| COc1ccc(CCN2CCC(Nc3nc4ccccc4n3Cc3ccc(F)cc3)CC2)cc1 | Alzheimer paired helical filaments | surface plasmon resonance |  | 150 µM, response per molecular weight | reference: thioflavin S | relative binding | 2.6 |
| Tumor necrosis factor alpha | P-glycoprotein (Bos taurus, UniProt A0A3Q1MB23) | apical-to-basolateral transport | BME-UV monolayers | 200 ng/mL, 72 h, together with: [3H]-digoxin 0.05 µM | reference: unexposed monolayers | decrease in digoxin flux | 43 ± 3% |
| CCLL | Protein farnesyltransferase | enzyme activity, substrate, fluorimetric | peptide | 3 µM, 30 min, together with: 9 µM farnesyl diphosphate | reference: dansyl-GCVLS (set to 1.0) | relative fluorescence increase | < 0.05 |
| O=C(NCc1ccc(CNS(=O)(=O)c2cccc3ccccc23)cc1)c1ccc(F)cc1 | CXCR4 | binding, competitor, rhodamine fluorescence | MDA-MB-231 | semi-quantitative screen, together with: biotinylated TN14003 |  | lowest effective concentration | 1000 nM |
| CCCC/C=C\CCCCCCCCCC=O | chemosensory protein 1 | binding, competitive ligand, fluorescence competitive binding |  | highest concentration tested, pH 7.4, protein 2 µM, together with: 1-NPN 2 µM | reference: no ligand | remaining 1-NPN fluorescence | 43.6 ± 0.68% |
| CC(C)C[C@H](NC(=O)[C@H](CC(C)C)NC(=O)[C@H](Cc1ccccc1)NC(=O)[C@@H](N)CO)C(=O)N[C@@H](CCCNC(=N)N)C(=O)N[C@@H](CC(N)=O)C(=O)O | F2R (Homo sapiens, UniProt P25116) | AFM force spectroscopy | proteoliposomes |  |  | binding free energy | -11.2 kcal/mol |
| CGQL | Protein farnesyltransferase | enzyme activity, substrate, fluorimetric | peptide | 3 µM, 30 min, together with: 9 µM farnesyl diphosphate | reference: dansyl-GCVLS (set to 1.0) | relative fluorescence increase | 0 |
| C[C@H]1[C@H](NC(=O)/C(=N\OC(C)(C)C(=O)O)c2csc(N)n2)C(=O)N1S(=O)(=O)O | SLC10A1 | inhibitor | HEK293 expressing NTCP | 100 µM, 5 min, together with: taurocholate 10 µM | reference: no compound | taurocholate uptake | 104 ± 4% |
| O=c1cc(-c2ccccc2)oc2cc(O)c(O)c(O)c12 | UGT1A9 (Homo sapiens, UniProt O60656) | substrate |  | pH 7.4, 37 °C |  | Vmax | 5310 pmol/mg/min |
| O=C(O)[C@H]1O[C@@H](O[C@H]2c3cc4ccc5cccc6c7ccccc7c(c3C=C[C@@H]2O)c4c56)[C@H](O)[C@@H](O)[C@@H]1O (relative stereo) | UGT1A8 (Homo sapiens, UniProt Q9HAW9) | glucuronidation, substrate | UGT-expressing HEK293 homogenate | normalized to UGT expression |  | kcat | 0.0025 ± 0.000333 s⁻¹ |
| O=C(O)c1ccc(NC(c2ccc(Br)cc2)c2ccc3ccccc3c2O)cc1 (stereo not shown) | CAAX prenyl protease 2 (Homo sapiens, UniProt Q9Y256) | enzyme activity, inhibitor |  | 10 µM |  | remaining activity | < 40% |
| CC[C@H](C)[C@H](NC(=O)[C@H](C)NC(=O)[C@H](CCC(N)=O)NC(=O)[C@H](CS)NC(=O)[C@@H](NC(=O)[C@H](Cc1c[nH]cn1)NC(=O)[C@H](CC(=O)O)NC(=O)[C@H](C)NC(=O)[C@H](CC(C)C)NC(=O)[C@@H](NC(=O)[C@@H](NC(=O)[C@H](CC(C)C)NC(=O)[C@H](CCCNC(=N)N)NC(=O)[C@H](Cc1c[nH]cn1)NC(=O)[C@@H](NC(=O)[C@H](CCCNC(=N)N)NC(=O)[C@@H]1CCCN1C(=O)[C@@H](NC(=O)[C@H](CCC(N)=O)NC(=O)CN)C(C)C)[C@@H](C)O)[C@@H](C)CC)[C@@H](C)O)[C@@H](C)CC)C(=O)N[C@H](C(=O)N[C@@H](CCC(N)=O)C(=O)N[C@@H](CC(=O)O)C(=O)N[C@@H](Cc1ccccc1)C(=O)N[C@@H](C)C(=O)N[C@@H](CCCNC(=N)N)C(=O)O)[C@@H](C)O | NR1D1 (Homo sapiens, UniProt P20393) | NCoR peptide binding, competitor, TR-FRET |  | 1 h, together with: labelled NCoR 2040-2065 peptide | reference: mutant over wild-type peptide | IC50 fold change | 36.8 |
| O=c1ccn([C@@H]2O[C@H](COP(=O)([O-])OP(=O)([O-])[O-])[C@@H](O)[C@H]2O)c(=O)[nH]1.[Na+].[Na+].[Na+] | Uracil nucleotide/cysteinyl leukotriene receptor, short isoform (GPR17, Homo sapiens, UniProt Q13304, R283I) | frontal affinity chromatography-MS | mutated receptor IAM column | concentration not given | reference: wild type column | breakthrough time change | -20.1% |
| O=C(NCc1ccc(CNS(=O)(=O)c2ccccc2F)cc1)c1ccc(CNc2ncccn2)cc1 | CXCR4 | binding, competitive inhibitor, competitive binding | MDA-MB-231 | semi-quantitative rhodamine readout, together with: biotinylated TN14003 |  | lowest effective concentration | 1000 nM |
| CCCCCCO | Chilo suppressalis CSP2 | binding, competitive fluorescence displacement |  | 30 µM, pH 7.4 |  | fluorescence intensity | 59.3 ± 2.24% |

| Molecule | target | assay | system | conditions | scale | quantity | value |
| --- | --- | --- | --- | --- | --- | --- | --- |
| CSVL | Protein farnesyltransferase | enzyme activity, substrate, fluorimetric | peptide | 3 µM, 30 min, together with: 9 µM farnesyl diphosphate | reference: dansyl-GCVLS (set to 1.0) | relative fluorescence increase | 0 |
| CN(Cc1cccc(Cl)c1)Cc1cccc(CN(C)Cc2cccc(Cl)c2)n1 | CXCR4 | binding, competition binding | MDA-MB-231 | semi-quantitative screen, together with: biotinylated TN14003 |  | lowest effective concentration | 10 nM |
| CC1=CC[C@H](C(C)C)C=C1 | Chilo suppressalis CSP2 | binding, competitive fluorescence displacement |  | 30 µM, pH 7.4 |  | fluorescence intensity | 59.8 ± 1.14% |
| Nc1nc2c(ncn2[C@@H]2O[C@H](COP(=O)(O)OP(=O)(O)OP(=O)(O)O)[C@@H](O)[C@H]2O)c(=O)[nH]1 | T1, RNA aptamer optimized Class I | ultrafiltration |  | apparent, together with: GTP |  | Kd | 76 nM |
| CCC1(C)CC(=O)NC1=O (stereo not shown) | SLC10A1 | inhibitor | HEK293 expressing NTCP | 100 µM, 5 min, together with: taurocholate 10 µM | reference: no compound | taurocholate uptake | 88.2 ± 3.8% |
| CCCC/C=C\CCCCCCCCCCCC=O | Chilo suppressalis CSP2 | binding, competitive ligand, fluorescence competitive binding |  | highest concentration tested, pH 7.4, protein 2 µM, together with: 1-NPN 2 µM | reference: no ligand | remaining 1-NPN fluorescence | 43.3 ± 2.13% |
| CN(C)c1ccc2c(-c3ccc(C(=O)O)cc3C(=O)[O-])c3ccc(=[N+](C)C)cc-3oc2c1 | T2, RNA aptamer del U24 | fluorescence quenching titration |  | pH 7.5, 25 °C, NaCl 15 mM, no Mg2+ |  | Kd | 1170 nM |
| Cc1ccc(S(=O)(=O)N2CCC2=O)cc1 | Erythronolide synthase EryA2, module 3 ACP, holo (eryA, Saccharopolyspora erythraea, UniProt Q03132) | substrate, LC-MS of tryptic digest |  | 10 equivalents, 1 h, pH 7, room temperature |  | phosphopantetheine acylation | ~80% |
| N.N.Nc1nc(Cl)nc2c1ncn2[C@H]1C[C@H](OP(=O)(O)O)[C@@H](COP(=O)(O)O)O1 | GPR17 (Homo sapiens, UniProt Q13304) | frontal affinity chromatography-MS | immobilized on IAM column | 1 µM, compound mixture |  | breakthrough time | 6.38 min |
| C[C@H](NC(=O)[C@H](Cc1ccccc1)NC(=O)[C@@H](NC(=O)[C@H](Cc1ccccc1)N(C)C(=O)[C@H](C)NC(=O)[C@H](CCCNC(=N)N)N(C)C(=O)[C@@H]1CCCN1C(=O)[C@H](CCCNC(=N)N)NC(=O)CNC(=O)c1ccc2c(c1)C1(OC2=O)c2ccc(O)cc2Oc2cc(O)ccc21)[C@@H](C)O)C(=O)N[C@@H](CCC(=O)O)C(=O)NCC(N)=O | AKT1 (Homo sapiens, UniProt P31749) | substrate, CE-LIF |  | 25 µM, pH 7.0, 30 °C, enzyme 6 nM, together with: ATP 1 mM |  | time to half phosphorylation | 125 min |
| zilucoplan | Complement C5 (Homo sapiens, UniProt P01031) |  | human whole blood | 1 nM, 24 h, together with: LPS 200 ng/mL | reference: LPS alone | C5a reduction | 65.7% |
| c1cc(CN2CCOCC2)ccc1CN1CCOCC1 | CXCR4 | binding, competition binding | MDA-MB-231 | semi-quantitative screen, together with: biotinylated TN14003 |  | lowest effective concentration | > 1000 nM |
| Clc1ccc(COC(Cn2ccnc2)c2ccc(Cl)cc2Cl)cc1 (stereo not shown) | SLC10A1 | inhibitor | NTCP-HEK293 | 50 µM | reference: without compound | taurocholate uptake | 92.3 ± 4.5% |
| CTAL | Protein farnesyltransferase | enzyme activity, substrate, fluorimetric | peptide | 3 µM, 30 min, together with: 9 µM farnesyl diphosphate | reference: dansyl-GCVLS (set to 1.0) | relative fluorescence increase | 0 |
| Ac-EVVYLIIRACARRAQRRSNP-NH2 (N-acetyl, C-amide) | Calmodulin-1 (CALM1, Homo sapiens, UniProt P0DP23, D132A/D96A) | Ca2+ dissociation EF1, stopped flow | peptide | 10 µM, pH 7.0, 21 °C, together with: CaM34 mutant |  | koff | 6.3 ± 0.7 s⁻¹ |
| CAYL | Protein farnesyltransferase | enzyme activity, substrate, fluorimetric | peptide | 3 µM, 30 min, together with: 9 µM farnesyl diphosphate | reference: dansyl-GCVLS (set to 1.0) | relative fluorescence increase | 0 |
| Cc1ccc(Oc2ccccc2)c(O)c1 | Enoyl-[acyl-carrier-protein] reductase [NADPH] FabI (Staphylococcus aureus, UniProt Q6GI75) | enzyme activity, inhibitor, progress curve kinetics |  |  |  | dissociation rate constant | 3.46 ± 0.29 h⁻¹ |

Excerpt of the above:
| Molecule | target | assay | system | conditions | scale | quantity | value |
| --- | --- | --- | --- | --- | --- | --- | --- |
| O=S(=O)(O)C1CCNCC1 | GABA-A receptor; alpha-1/beta-2/gamma-2 (Homo sapiens, UniProt P14867+P18507+P47870) | ion current, positive allosteric modulator | Ltk | together with: zuranolone 200 nM | reference: maximal GABA current | Emax | 50.5% |
| CCCCCCCCCCCC=O | chemosensory protein 1 | binding, competitive ligand, fluorescence competitive binding |  | highest concentration tested, pH 7.4, protein 2 µM, together with: 1-NPN 2 µM | reference: no ligand | remaining 1-NPN fluorescence | 37.4 ± 2.76% |
| COc1ccc(CCN2CCC(Nc3nc4ccccc4n3Cc3ccc(F)cc3)CC2)cc1 | Alzheimer paired helical filaments | surface plasmon resonance |  | 150 µM, response per molecular weight | reference: thioflavin S | relative binding | 2.6 |
| Tumor necrosis factor alpha | P-glycoprotein (Bos taurus, UniProt A0A3Q1MB23) | apical-to-basolateral transport | BME-UV monolayers | 200 ng/mL, 72 h, together with: [3H]-digoxin 0.05 µM | reference: unexposed monolayers | decrease in digoxin flux | 43 ± 3% |
